Assay results collected from several papers.
Parts stem from different laboratories: compare values within a part only. Changes are numbered by the printed parent chain.

Study 1
Target: RNA binding protein fox-1 homolog 2, RRM domain, GST-SBP tag (RBFOX2, Homo sapiens, UniProt O43251-10, residues 100-194)
Technique: RNA Bind-n-Seq
Molecule type: RNA
Medium: in vitro
Tested at: 365 nM
Setting: natural RNA segment, single round, ends assumed
Relative to: no-protein control
Direction: higher = stronger binding
Quantity: RBNS enrichment (R)
Shared flanks, not repeated: GGGAGUUCUACAGUCCGACGAUC … UGGAAUUCUCGGGUGCCAA
Target sequence (chain): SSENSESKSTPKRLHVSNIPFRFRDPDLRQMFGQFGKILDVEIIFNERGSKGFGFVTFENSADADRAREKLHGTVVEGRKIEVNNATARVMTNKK
UAAGACUAAGAUCUGUCUUUUUGGUGACUAACCCUUCAAUUCUUUCAACUCCUGUUAAUACCCAUAAUCAGUAACCUAUCAAGAAAAGCCCUUAUUUGGAAAGUGUGAAA: 0.514
AUUCAUAGCCCCGUCACAGGAAGUGGGAGAUGCUCCUUUUUGUCCCAGACUGGAAAUCCAUCACAUCCCAAGGCUCCUUGGCAGUCAUCUGUCUGUGUGGCUUGUUCUGU: 0.217
ACACACCAGCUCCUGUUGGGAUGGAUGGCCCGGAUUUUAUGGCAUCUGGAACAUGGGCACAGAGAGGGGCCUGUGGGAGGGGCUGGGAAAAUAAAGUCCAAGGUCGAGAC: 0.848
GUUUGUAUGUAUCCUUAUCAAAUAUAUUCUAUAAGGAAAUAAAAUCUGAAAAGUGACUUUCUUAUUGACCUACGUUUCUGAAAGUAUGUGAAUUAAAGAAUUUAAAAUUA: 0.575
ACCACCACCCCUCCCUGGCCAUCCUCCUGGAAUGUGGUCUGCCCUCCACCAGAGCUCCUGCCUGCCAGGACUGGACCAGAGCAGCCAGGCUGGGGCCCCUCUGUCUCAAC: 0.669
GAGGCUGUGUGGGCGGGUGCAUGUGCACCGUGGAGUGCACACAAGGGGACUGUCAAUCACAGGGUUUCAUAUGUUGUCAUUGUCACUCUUUCACAUUUUUGUACAUCAGU: 0.752
AUGUAUUUUUACUACACUUUUCUUAAAAAUGGAGCAGUGGGAAAACUCUGAAAGAGAUUGACAUUUUUCUCAACAGGAAUCCAUACUUAACAGUUCUGGCUUUCAUUAAA: 0.385
UAAAUUGAUGUGUUAUUAUGUCAAAAGCCGGAUCUAUUAAAGAAACAAUUGGCCUUUCUGAGCUGAUUUUUCCAUCUUUUGUAAUUAUCUUUAUUAAAAAAUUGUACUUG: 0.473

Study 2
Target: Interferon regulatory factor 3, full length, phosphomimetic (IRF3, Homo sapiens, UniProt Q14653, residues 1-427, S386D/S396D/S398D/S402D/T404D/S405D)
UniProt Q14653, sequence (whole entry, unmodified, looked up): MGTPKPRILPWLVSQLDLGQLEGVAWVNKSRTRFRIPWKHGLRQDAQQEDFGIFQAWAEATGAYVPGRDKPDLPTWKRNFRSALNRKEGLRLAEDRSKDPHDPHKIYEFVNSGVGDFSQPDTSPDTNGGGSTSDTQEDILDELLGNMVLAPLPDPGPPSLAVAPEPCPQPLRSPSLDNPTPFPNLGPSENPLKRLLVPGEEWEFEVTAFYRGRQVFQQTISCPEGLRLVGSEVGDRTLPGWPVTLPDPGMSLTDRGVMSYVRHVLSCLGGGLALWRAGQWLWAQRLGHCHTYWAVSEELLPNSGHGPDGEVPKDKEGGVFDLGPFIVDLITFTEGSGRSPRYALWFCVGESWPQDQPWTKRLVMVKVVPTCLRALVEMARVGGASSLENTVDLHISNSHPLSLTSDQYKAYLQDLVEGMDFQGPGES
Technique: protein-binding microarray
Molecule type: double-stranded DNA, one strand shown
Medium: in vitro
Tested at: 2540 nM top
Setting: 60-bp whole probe
Added: salmon DNA 0.4 mg/ml
Relative to: random background probes
Direction: higher = stronger binding
Quantity: fitted relative affinity
Shared flanks, not repeated: GCCTAGCAC … GTCTTGATTCGCTTGACGCTGCTG
GACGGTATAGGTATCGGGACGTGCTAG: 0.537 z-score
GACGGTATCGGGTAGCGGGACGTGCTA: 0.918 z-score
TCAATTTTCATTTTGTGACTGTGCTAG: 2.66 z-score
TCAATTTTCTGAATGTCACTGTGCTAG: 1.41 z-score
GCCGGACTGGGGTTTCGGGACGTGCTA: 0.981 z-score
TTAGGTATCGACTATGGGTTAGTGCTA: 0.24 z-score
GACGATTTCAGTTTCCAGACGTGCTAG: 5.6 z-score
TTTCTCTGCTCTTTTCAACAAGTGCTA: 2.98 z-score
TTAGGTTTCCTATCCCTTTAGTGCTAG: 6.21 z-score
GACGGTATCGACTTTCGGGGCGTGCTA: 1.13 z-score
GACGGTCTCCTACGGCTGACGTGCTAG: 0.151 z-score
TTAGATATAGGGTTTCGATTAGTGCTA: 1.53 z-score
TTAGGGATCGACACTGGGTTAGTGCTA: -0.535 z-score
ATTTTTCTAATTTACTTTGGGTGCTAG: 1.86 z-score
GACGATATCGGTTTCGGGACGTGCTAG: 4.78 z-score
AACGATTTCAGTCTCGAGACGTGCTAG: 2.15 z-score
TCAGGTCTCGCTATGTTACTGTGCTAG: 0.448 z-score
TAAGAACTGAGTTTCGATTAGTGCTAG: 2.56 z-score
TCATCTTTTTTGTTCCAACTGTGCTAG: 1.69 z-score

Study 3
Target: RING finger protein unkempt homolog, zinc fingers 1-6, GST-SBP tag (UNK, Homo sapiens, UniProt Q9C0B0, residues 30-357)
UniProt Q9C0B0, sequence (30-357, looked up): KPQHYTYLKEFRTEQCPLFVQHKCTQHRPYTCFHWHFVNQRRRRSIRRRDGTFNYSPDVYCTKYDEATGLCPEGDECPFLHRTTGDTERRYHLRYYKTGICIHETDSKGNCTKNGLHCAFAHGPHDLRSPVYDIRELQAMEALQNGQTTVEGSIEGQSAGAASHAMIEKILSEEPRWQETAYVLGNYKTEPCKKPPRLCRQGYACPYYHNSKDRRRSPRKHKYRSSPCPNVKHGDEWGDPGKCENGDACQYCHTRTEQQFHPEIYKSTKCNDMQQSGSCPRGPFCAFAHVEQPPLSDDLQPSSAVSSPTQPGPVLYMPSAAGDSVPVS
Technique: RNA Bind-n-Seq
Molecule type: RNA
Medium: in vitro
Tested at: not given
Setting: RNA with constant flanks, human and mouse sites, ends assumed
Relative to: input RNA pool
Direction: higher = stronger binding
Quantity: bound/input enrichment
Shared flanks, not repeated: GGGAGUUCUACAGUCCGACGAUC … CAACAGAGGAUUGAGCAUCA
ACACUGGGUUCUUUGGAAGCUCUACUGGAAUUUCUGAAAACAUCAGAAGUGCCCUAUGCAGGAAUUAACAUUGGCCCAGUGCAUAAAAAAGAUGUUAUGAAGGCUUCAGUGAUGUUGGAA: 0.135 ratio
UUCAAAAAGAGAAGAACUGAAAAUGGAAAAUCUAGAAAUUUAAGGCAACGAGGUGAUGAUCAAUAGUUGCAGGAGAGCUUUUUGUACAUGCUUUUAGGACAGAAUGGAGACUUAUACACC: 2.66 ratio
CAAAUGAAUCAUGCCUGUAUGCUGUUUGUAGAAAAUUAUGGACAGAAAAUAAUUAAGAAGAAUUUAUGUCGAAACUUCAUGCUUCAUCUAGUCAGCAUGCAUGACUUUAAUCUUAUUAGC: 0.781 ratio
UACAAGGAAUUGAAGAAUUUGAUUCCUAAGUCAGCAGUGGGCACACUGUCUGGAAACUCUAGUAAUGUGAUCCAGCUAAUCAUCGAUGCCUACAACUCUCUUUCUUCAGAAGUCAUUCUG: 0.0635 ratio
GCGGCCUCAUUGCUCCGUUUUCAGAGUACCUUGGUAAUAGCUGAGCAUGCAAAUGAUUCCCUAGCACCCAUUACUCUAAAUACUAUCACUGCAGCUGGACGUCUUGGAGGUGAAGUGUCC: 0.333 ratio
CGUCACAAAGAACUUUUUGCUUUGCAUCCAUCACCAGAUGAGGAAGAACCAAUAGAACGGCUUAGUGUUCCUGAUAUACCCAAAGAACAUUUUGGUCAAAGACUUCUUGUAAAAUGCUUA: 0.14 ratio
AUCACCGUGGACUCCAAGCGCUUCUUCUUCGAUGUGGGCUGCAACAAAUACGGGGUGUUUCUGCGAGUGAGCGAGGUGAAGCCGUCCUACCGCAAUGCCAUCACCGUACCCUUCAAAGCC: 0.0523 ratio
UCUUUUAUAUUUCCUCAAAUACUGUGAAUGGUCUGAGGCGCAGGGUAAAAUAUUUGGAGUACCUUUUAAUGCACUGCCCCAUUCUGCUGUACCAGAAUAUGGACACAUUCCAAGCUUUCU: 0.21 ratio

Study 4
Target: CCNE2, cyclin fold, Cln2 fusion (human)
Technique: yeast growth competition, sequencing
Medium: yeast
Setting: weak parent motif
Relative to: not given
Direction: higher = stronger binding
Quantity: normalised enrichment score
Parent: WEE2 docking peptide (human); KELRQKLNFSYCE
E13A: 0.298
L7A: -0.131
R4A: -0.0273
Y11A: -0.262
L3A: 0.016
S10A: 0.0699
K6A: 0.238

A few entries again (study 4):
E13A: 0.298
L7A: -0.131
R4A: -0.0273
Y11A: -0.262
L3A: 0.016
S10A: 0.0699
